Measured values collected from several papers.
Each numbered part is a random draw from the data of one study; scales do not carry over between parts.

Sample 1 — technique: RNA Bind-n-Seq; form: RNA; medium: in vitro; concentration: 365 nM; relative to: no-protein control; direction: higher = stronger binding
Target: RNA binding protein fox-1 homolog 2, RRM domain, GST-SBP tag (RBFOX2, Homo sapiens, UniProt O43251-10, residues 100-194)
Notes: natural RNA segment, single round, ends assumed
Shared flanks, not repeated: GGGAGUUCUACAGUCCGACGAUC … UGGAAUUCUCGGGUGCCAA
Residues (chain): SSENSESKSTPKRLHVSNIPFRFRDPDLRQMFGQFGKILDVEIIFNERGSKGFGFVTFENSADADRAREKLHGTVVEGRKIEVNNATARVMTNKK
Strand	RBNS enrichment (R)
AGACGGAGAAAAGGACUAGUGGCUGCCAACGCGCACGCUCGGGUCCGAGGCUGCUCCCCUGGAGCGGCGCCCCUGCGCCCUCAGCCCGAGCAGCGACAUCCACUCGCCAU	0.232
UCAGGGGCCACUGGACUAUUUGCAAGGUGACAGGGACUGGAGCCAUGGCUCAGAGGUGAUUCGGGCAGCCAGGGACAGGAGCCACCCUCCCCAGGCCCAACUCUGCUAGC	0.938
UUUCCAACCUUAAUACUAUUAGUAACCACAAGUUCAAGGGUCAAAGGGACCCUCUGUGCCUUCUUCUUUGUUUUGUGAUAAACAUAACUUGCCAACAGUCUCUAUGCUUA	0.545
UGCCUUGGGCCUUGCUGCUGCUGCACCCAACUACUGAGCUGAGACCACUGAGUACCAGGGGCUGGGCUCCCUGAUGACACCCACCCUGUGCCAUCACCAUAACCUCUGGG	0.724
UUAAUUUUGUUAAUCCUGUCUGGGACAUUUAGGUAACAUCUAAAGCAUUAUUGCUUUAGAAUGUUCAAAUAAAAUUUCCUGACCAAAUUGUUUUGUGACAGUAGAUGUGU	0.387
CUUCUCUGCUUAUCCCCAGGCAGCAGAUGCUGAGCUUCCCCCACCUCCUGCAGACAGUGCUGCACAUCAUCCAGGUAGUCAUCAGCUACUUCCUCAUGCUCAUCUUCAUG	0.577
GGCAGCUGAUCGCCCUGCGUGCUGUGUCGCGCUGCUUUGUCCCAGACACAAACCAGCACGUCAAGGGCCUAGCUCCUCCCCACCCCGGCAUUUCAGCGUCAAGUGCACUU	0.356
CACCCUUGUCCCUCAGCAACAUCCCAUCUAAGCAUUCCACACUGCAGGGAGGAGUGGUACUUAAGCUCCCCUGCCUUAACCUGGGACCAACCUGACCUAACCUAGGAGGG	0.597
GCACAGGGAGAAGGGAUAACCCUACACCCAGACCCCAGGCUGGACAUGCUGACUGUCCUCUCCCCUCCAGCCUUUGGCCUUGGCUUUUCUAGCCUAUUUACCUGCAGGCU	0.258
AGCUCUUGGGUUAAAUGGUUUGUUAUGAGCAGGCUUUCCAUUACUCAUUGUUCUGCGAUUUAUUUUAGAGAUUGUCCAUGAGCACUGAACAAGGAGAAGAAGUUUCUUGU	0.555
CUGAUACUCCUUGGAGACACCCUCUUUGGCCCUCACUACUUGACCAGACUGGUACUUGAGUCCUUCUCAUGGGUGGGGUGAUUGCCUCUUCUCAUCAGGAGCCAGGAGAG	0.418
UGAGCCAGAACCACAAGAGCCAGUUCCUCAAGAGGCUUUUGUCCCCAAGCCUGAGGACAGAGCCGCAUCAAGUCAUCAUCAGCAAGUCAGCCAGCCUGUUUGGUCUGCUU	0.443

Sample 2 — technique: RNA Bind-n-Seq; form: RNA; medium: in vitro; concentration: 1 µM; notes: whole 134-nt RNA, ends assumed; with: 150 mM KCl; relative to: input library; direction: higher = stronger binding
Target: Ras GTPase-activating protein-binding protein 1, RRM domain (G3BP1, Homo sapiens, UniProt Q13283)
Sequence of UniProt Q13283 (whole entry, looked up): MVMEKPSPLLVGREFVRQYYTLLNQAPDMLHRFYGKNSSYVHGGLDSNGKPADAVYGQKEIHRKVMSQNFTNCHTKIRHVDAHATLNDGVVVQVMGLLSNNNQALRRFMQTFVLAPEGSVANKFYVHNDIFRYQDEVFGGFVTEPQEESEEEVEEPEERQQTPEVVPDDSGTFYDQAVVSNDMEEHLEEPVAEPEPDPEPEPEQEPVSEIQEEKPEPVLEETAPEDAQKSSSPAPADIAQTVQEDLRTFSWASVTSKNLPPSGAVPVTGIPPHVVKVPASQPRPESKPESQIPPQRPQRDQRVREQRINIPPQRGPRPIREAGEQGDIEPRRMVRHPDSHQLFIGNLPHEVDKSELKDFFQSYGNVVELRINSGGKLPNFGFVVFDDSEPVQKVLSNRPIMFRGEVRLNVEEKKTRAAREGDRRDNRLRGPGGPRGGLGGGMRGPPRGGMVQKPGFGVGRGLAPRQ
Shared flanks, not repeated: GGGAGUUCUACAGUCCGACGAUC … UGGAAUUCUCGGGUGUCAAGG
Strand	log2 enrichment
CACAGACAACACGCACCCACACAGACACAGAAAAAAGGGGUUGGGAUGGGGACAGGGUGCACAGCAGGGCGGGGUAGGACCCCAGCCCCU	-0.141
CACAGACAACACGCACCCACACAGACACAGAGGGAAGGGGUUGGGAUGGGGACAGGGUGCACAGCAGGGCGGGGUAGGACCCCAACCCCU	-0.341
CUCAAGUCCUGUGCUACACAUCGUAUGUACCGAAUCGGGUUGGUUGGUUGGGGAAAGUAUUAUGUUACGCCGUUCGGAUCUGCACUUCCA	-0.218
CAAGUCCUGUGCUACACAUCGUAUGUACCGAAUCGGGUUUUUUUGGGAGGGUGGGAAAGUAUUAUGUUACGCCGUUCGGAUCUGCACUUC	0.483
UCCUCAAGUCCUGUGCUACACAUCGUAUGUACCGAAUCGGUGGUGGGGUGGGAAAGUAUUAUGUUACGCCGUUCGGAUCUGCACUUCCAG	-0.113
CAAGUCCUGUGCUACACAUCGUAUGUACCGAAUCGGGGUGGGGAGGGGAAAGGGGAAAGUAUUAUGUUACGCCGUUCGGAUCUGCACUUC	1.25
CACAGACAACACGCACCCACACAGACACAGAGGGAAGGGGUUGGGAUGGGGACCGGGUGCACAGCAGGGCGGGGUAGGACCCCAGCCCCU	0.405
UGUGCUACACAUCGUAUGUACCGAAUCGGGAAAAAAAGGGGAAAAAAAGGGGAAAAAAAGGGGAAAGUAUUAUGUUACGCCGUUCGGAUC	0.227
AAGUCCUGUGCUACACAUCGUAUGUACCGAAUCGGAAAAAAAGGAGGUUUUUUUGGAAAGUAUUAUGUUACGCCGUUCGGAUCUGCACUU	-0.109

Sample 3 — technique: RNA Bind-n-Seq; form: RNA; medium: in vitro; concentration: 100 nM; relative to: input RNA pool; direction: higher = stronger binding
Target: RING finger protein unkempt homolog, zinc fingers 1-6, SBP tag (UNK, Homo sapiens, UniProt Q9C0B0, residues 30-357)
Sequence of UniProt Q9C0B0 (30-357, looked up): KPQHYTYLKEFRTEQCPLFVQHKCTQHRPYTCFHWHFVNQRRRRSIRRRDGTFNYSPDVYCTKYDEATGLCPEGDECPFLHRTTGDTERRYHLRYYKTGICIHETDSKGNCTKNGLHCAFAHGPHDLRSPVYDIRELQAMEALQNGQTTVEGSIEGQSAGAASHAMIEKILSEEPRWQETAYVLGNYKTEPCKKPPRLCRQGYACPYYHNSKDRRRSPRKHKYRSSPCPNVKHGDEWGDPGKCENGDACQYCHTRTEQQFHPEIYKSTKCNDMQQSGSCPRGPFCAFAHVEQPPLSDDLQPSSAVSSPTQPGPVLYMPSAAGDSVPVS
Notes: RNA with constant flanks, vertebrate orthologous sites, ends assumed
Shared flanks, not repeated: GGGAGUUCUACAGUCCGACGAUC … CAACAGAGGAUUGAGCAUCA
Strand	bound/input enrichment
GUUGUGAUCCUUUUAACAUACACAAAAAGCUUGCAAAGAAAAAUUUGCAUGCAAUUGACUUAGAUGAUGCCACUUUCCUAAGUGCCAAGUUUGGAAGACAGCUUGUACCUGGUUGGAAGC	0.538 ratio
CUCCUCUUAACCCCAUCUCAUCUGUUUCAUAGUGCUGAAAUUCCAUCUUCAGCCUUAUUUUUAGCGAACUUAUUCUAAUUCUAGAGAAACUUCCAGUGGAUACUGUGAGCUACAUGGAGA	1.54 ratio
UUGUGAGGAGUGGGAAGGAUGAGAUUCUUCUCCCUCCAAGUAAAACUGACAUAAUUUCCUUUUAGUUCUGUCUUUGAAAACAAAGAUGCCCUUUUCUCUUAAUUGUGUGACACCACUAUC	0.691 ratio
CAUAAUCACUCUAAUUGUAAUCUGAAUAAAGUGUAACAUUGUGUAGCCUUUUGUAUAAAAUAGACAAAUAGAAAUGGUCCAAUUAGUUUCCUUUUUAAUAUGCUUAAAAUAAGCAGGUGG	1.71 ratio
CUAUUGUGUGAAACAUGUCUACCCAGGAAAGUAACACUCUAUAAAUACUGUUAAACAAUUUAGCUAUAUUAUUUUUAAGUAUUAUAUUGUAUGUCAAGCAGUUAAAAUGAAUUUCAGAGU	0.394 ratio
GCAGUGAAAAUACAGCCCUUCUCCCUGCCCCCUUUUCACUAGGAGAUACAAACGUUUCCGUAGAAGAGCAAUUAAACUCAAUAAAUUUAUCUUUUCAGGAUGAUCCAGAAUCCAGUACCA	1.41 ratio
GAAUGUUUUCAAACUGGGUUUUUUUUGCCUGUAAGAAAACAGUGUACCCGAGCACACAUAUAGAGCUUUUUAAUAGCACUAACCAAUGCCUUUUUAGAUGUAUUUUUGAUGUAUAUAUCU	0.877 ratio
AUCUUCAGGAUGAAGCUCUUACAUCAGGUAGUCAAGAGUCUGGAGAACAGAUGGGUUGAACAGUUGUAUUUAUAAGUUAGUCUCUGUGGAUUACAAUCCUUUAUAUAUCAACAUCACAGU	0.523 ratio
CACAUCUGGUGAUAUUUGGCCUGGCCUUUCAGCUUAUGAUAAUAGUCCCAGAUCACCCCAUAGCCCAUCACCUAUUGCUACACCACCUAGUCAGAGUUCAUCUUGCUCUGAUGCCCCCAU	1.03 ratio
AUGUUCUUAGAAAAGAAUUCUCAUUCAUCUUCCCAUAGUGAAAUUCUCUAGCACUGUAUUUAGAUUCUGGAUUUUUAUAAUUCAUGCUUAAUGUAUUAGACAUUUUUAGCCCAUAAUUAA	1.1 ratio
CACAUCUGGUGAUAUUUGGCCUGGCCUUUCAGCGUAUGAUAAUAGUCCCAGAUCGCCCCAUAGUCCUUCACCAAUCGCUACACCACCUAGUCAGAGUUCAUCUUGCUCUGAUGCCCCCAU	0.893 ratio

Single results of other studies
Substance	target	assay	system	setting	scale	measurement	result
PhoQ, residues 284 288 289 292 302 303 NSMLDC	PhoP, residues 12 14 15 18 19 VQALL (Escherichia coli, UniProt P23836)	Sort-seq, refers to: YFP reporter	E. coli	PhoQ-PhoP variant library, with: 10 µM Mg2+	relative to: high Mg2+ state, higher = stronger signaling	fold induction	12.7

A few entries again (single results of other studies):
Substance	target	assay	system	setting	scale	measurement	result
PhoQ, residues 284 288 289 292 302 303 NSMLDC	PhoP, residues 12 14 15 18 19 VQALL (Escherichia coli, UniProt P23836)	Sort-seq, refers to: YFP reporter	E. coli	PhoQ-PhoP variant library, with: 10 µM Mg2+	relative to: high Mg2+ state, higher = stronger signaling	fold induction	12.7
